Measured values of several laboratories.
A part holds a random share of what one study measured. Substitutions count along the parent as printed.

Sample 1
Target: ATF1, bZIP domain (human)
Technique: DHFR protein complementation
Matrix: yeast
Notes: single substitutions, most at no-binding floor
Baseline: wild-type JUN-FOS pair
Reading: higher = stronger binding
Starting sequence: JUN, bZIP domain (human); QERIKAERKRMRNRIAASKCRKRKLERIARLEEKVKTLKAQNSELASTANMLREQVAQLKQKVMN; partner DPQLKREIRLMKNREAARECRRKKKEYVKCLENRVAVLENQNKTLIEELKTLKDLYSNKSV
For `A40H`, the binding fitness was -1.5 natural log.
For `S47C`, the binding fitness was -1.4 natural log.
For `K36Q`, the binding fitness was -1.52 natural log.
`E33W` has a binding fitness of -1.56 natural log.
`V56P` has a binding fitness of -1.51 natural log.
The binding fitness of `T37S` is reported as -1.51 natural log.
The binding fitness of `I28C` is reported as -1.56 natural log.
`E33R` gave a binding fitness of -1.55 natural log.

Sample 2
Target: OGT, full length, His-tagged (human)
Technique: phage display, sequencing
Matrix: in vitro
Tested at: 1 µg OGT
Notes: single substitutions, 15-mer displayed peptide, unchanged parent 19.6
Baseline: input library
Reading: higher = stronger binding
Starting sequence: peptide; TAPFYPPAYQIQVFK
`A2N` has a fold enrichment of 16 fold.
For `V13D`, the fold enrichment was 0.391 fold.
`P7T` gave a fold enrichment of 1.02 fold.
`A2I` gave a fold enrichment of 20.4 fold.
`P7K` has a fold enrichment of 0.756 fold.
The fold enrichment of `P6M` is reported as 1.5 fold.
`T1P` has a fold enrichment of 17.6 fold.
The fold enrichment of `A2Y` is reported as 22.3 fold.

Sample 3
Target: Histone acetyltransferase KAT6A, winged helix 2, GST fusion (KAT6A, Homo sapiens, UniProt Q92794, residues 85-181)
Technique: protein binding microarray
Form: double-stranded DNA, one strand shown
Matrix: in vitro
Tested at: not given
Notes: 8-mer, flanks averaged, mean of 2 arrays, mostly near background
Baseline: not given
Reading: higher = stronger binding
Target sequence (chain): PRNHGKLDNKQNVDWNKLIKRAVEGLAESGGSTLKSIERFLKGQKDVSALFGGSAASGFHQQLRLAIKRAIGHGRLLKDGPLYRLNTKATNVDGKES
`GCGCAAAA` gave an E-score of 0.0637.
`CGACCAAG` gave an E-score of 0.102.
The E-score of `ACCATTTG` is reported as 0.0302.
`GCGACCGA` gave an E-score of 0.234.
For `ACAACAGA`, the E-score was -0.000905.
`TAACGACA` gave an E-score of 0.05.
With `TACTTAAA` the E-score was -0.0669.
`CACGAACG` has an E-score of 0.0259.

Single results of other studies
Starting sequence: PafA, mature enzyme, eGFP fusion (Elizabethkingia meningoseptica, UniProt Q9KJX5); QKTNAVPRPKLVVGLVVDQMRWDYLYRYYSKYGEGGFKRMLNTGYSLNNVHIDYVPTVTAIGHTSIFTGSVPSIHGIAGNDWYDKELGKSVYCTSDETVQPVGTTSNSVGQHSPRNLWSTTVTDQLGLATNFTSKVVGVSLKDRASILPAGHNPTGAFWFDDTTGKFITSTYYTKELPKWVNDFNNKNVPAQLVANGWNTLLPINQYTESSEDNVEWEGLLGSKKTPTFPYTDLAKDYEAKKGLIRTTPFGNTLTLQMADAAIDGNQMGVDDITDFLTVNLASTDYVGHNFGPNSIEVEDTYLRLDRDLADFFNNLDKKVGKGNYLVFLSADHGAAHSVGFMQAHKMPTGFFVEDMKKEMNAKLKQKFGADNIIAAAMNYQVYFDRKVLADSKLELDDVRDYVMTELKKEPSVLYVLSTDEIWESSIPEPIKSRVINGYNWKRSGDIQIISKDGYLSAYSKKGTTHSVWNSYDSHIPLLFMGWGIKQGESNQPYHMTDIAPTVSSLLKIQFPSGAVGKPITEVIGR
For `N266G`, “phosphate dissociation constant” read 596 µM (inorganic phosphate, free oxyanion; microfluidic competitive inhibition; in vitro, cell-free expressed; not given, derived from inhibition constants, unchanged parent 615000 nM; lower = stronger binding).
